Experimental data from different studies.
Each line is one published result; not all experiments were run side by side.
Method: steady-state kinetics
B1: CYP1A2 (Homo sapiens, UniProt P05177); chain ALSQSVPFSATELLLASAIFCLVFWVLKGLRPRVPKGLKSPPEPWGWPLLGHVLTLGKNPHLALSRMSQRYGDVLQIRIGSTPVLVLSRLDTIRQALVRQGDDFKGRPDLYTSTLITDGQSLTFSTDSGPVWAARRRLAQNALNTFSIASDPASSSSCYLEEHVSKEAKALISRLQELMAGPGHFDPYNQVVVSVANVIGAMCFGQHFPESSDEMLSLVKNTHEFVETASSGNPLDFFPILRYLPNPALQRFKAFNQRFLWFLQKTVQEHYQDFDKNSVRDITGALFKHSKKGPRASGNLIPQEKIVNLVNDIFGAGFDTVTTAISWSLMYLVTKPEIQRKIQKELDTVIGRERRPRLSDRPQLPYLEAFILETFRHSSFLPFTIPHSTTRDTTLNGFYIPKKCCVFVNQWQVNHDPELWEDPSEFRPERFLTADGTAINKPLSEKMMLFGMGKRRCIGEVLAKWEIFLFLAILLQQLEFSVPPGVKVDLTPIYGLTMKHARCEHVQARLRFSIN
B2: TRM10 D210K (Saccharomyces cerevisiae, UniProt Q12400); chain MSNDEINQNEEKVKRTPPLPPVPEGMSKKQWKKMCKRQRWEENKAKYNAERRVKKKRLRHERSAKIQEYIDRGEEVPQELIREPRINVNQTDSGIEIILDCSFDELMNDKEIVSLSNQVTRAYSANRRANHFAEIKVAPFDKRLKQRFETTLKNTNYENWNHFKFLPDDKIMFGDEHISKDKIVYLTADTEEKLEKLEPGMRYIVGGIVKKNRYKELCLKKAQKMGIPTRRLPIDEYINLEGRRVLTTTHVVQLMLKYFDDHNWKNAFESVLPPRKLDAEAKSASSSPAPKDT
B3: enzyme (Escherichia coli, UniProt P00383); chain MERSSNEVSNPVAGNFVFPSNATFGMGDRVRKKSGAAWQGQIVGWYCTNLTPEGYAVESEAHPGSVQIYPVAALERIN
B4: Tcur_2987 W263F (Thermomonospora curvata, UniProt D1A807); chain ACSEERAAGARPSATQTTGTATEPFHGPHQAGIATPPQAHAVFLGLDLRKGTGRKELGRLMRLLTDDARRLTQGRPALADPEPDLAPLPSRLTFTFGFGPGLFKAAGLEKQRPEGLRPLPPFKVDRLEDRWSGGDLLVQICCDDPITLAHALRMTVKDARAFTRVRWVQRGFRRSPGVQSSGATQRNLMGQLDGTVNPVPGTADFDQAVWVQDGPEWLRGGTTLVLRRIRMELEKFDEADPAGKEFAVGRRLTSGAPLTGRHEHDEPDFDAVDSAGFPVIAENAHIRLAHVDSPRLRMLRRPYNYDEGLTADGRSDAGLLFAAYQADIDRQFIPVQRRLDEGGDLLNLWTTPIGSAVFAIPPGCDENGWIGQGLLG
B5: TRMT10A D210N (Homo sapiens, UniProt Q8TBZ6); chain MSSEMLPAFIETSNVDKKQGINEDQEESQKPRLGEGCEPISKRQMKKLIKQKQWEEQRELRKQKRKEKRKRKKLERQCQMEPNSDGHDRKRVRRDVVHSTLRLIIDCSFDHLMVLKDIKKLHKQIQRCYAENRRALHPVQFYLTSHGGQLKKNMDENDKGWVNWKDIHIKPEHYSELIKKEDLIYLTSDSPNILKELDESKAYVIGGLVNHNHHKGLTYKQASDYGINHAQLPLGNFVKMNSRKVLAVNHVFEIILEYLETRDWQEAFFTILPQRKGAVPTDKACESASHDNQSVRMEEGGSDSDSSEEEYSRNELDSPHEEKQDKENHTESTVNSLPH
B6: Tcur_2987 W263F/W376F (Thermomonospora curvata, UniProt D1A807); chain ACSEERAAGARPSATQTTGTATEPFHGPHQAGIATPPQAHAVFLGLDLRKGTGRKELGRLMRLLTDDARRLTQGRPALADPEPDLAPLPSRLTFTFGFGPGLFKAAGLEKQRPEGLRPLPPFKVDRLEDRWSGGDLLVQICCDDPITLAHALRMTVKDARAFTRVRWVQRGFRRSPGVQSSGATQRNLMGQLDGTVNPVPGTADFDQAVWVQDGPEWLRGGTTLVLRRIRMELEKFDEADPAGKEFAVGRRLTSGAPLTGRHEHDEPDFDAVDSAGFPVIAENAHIRLAHVDSPRLRMLRRPYNYDEGLTADGRSDAGLLFAAYQADIDRQFIPVQRRLDEGGDLLNLFTTPIGSAVFAIPPGCDENGWIGQGLLG
B7: Tcur_2987 W263A (Thermomonospora curvata, UniProt D1A807); chain ACSEERAAGARPSATQTTGTATEPFHGPHQAGIATPPQAHAVFLGLDLRKGTGRKELGRLMRLLTDDARRLTQGRPALADPEPDLAPLPSRLTFTFGFGPGLFKAAGLEKQRPEGLRPLPPFKVDRLEDRWSGGDLLVQICCDDPITLAHALRMTVKDARAFTRVRWVQRGFRRSPGVQSSGATQRNLMGQLDGTVNPVPGTADFDQAVWVQDGPEWLRGGTTLVLRRIRMELEKADEADPAGKEFAVGRRLTSGAPLTGRHEHDEPDFDAVDSAGFPVIAENAHIRLAHVDSPRLRMLRRPYNYDEGLTADGRSDAGLLFAAYQADIDRQFIPVQRRLDEGGDLLNLWTTPIGSAVFAIPPGCDENGWIGQGLLG
B8: flaI (Sulfolobus acidocaldarius, UniProt Q4J9L0); chain MSFVEDYLTKLQERPTIIENPNILKGSKIFNAIYRVDDFVYIHIQSIKSEDGYNQYNVIEPPRPTHDEMEEIEEKFALSIGDKEPPEDTKEKEKLIRSILDKILLRMRLSVPKEYVIYHFIRDKLYTGSLEPLIRDPYIEDISIPGLGHVYIVHKVFGPMRTSIKFENYEELDNLIVSLSEKSYRPVSHNRPVVDASLPDGSRVNFVYGVDISRRGSNLTVRKFSRVPTSITQLIMFGTLSSMMAAYIWTMLDEGMNLFVCGETASGKTTTLNAITAFIPPNLKIVTIEDTPELTVPHSNWVAEVTRETGGEGTIKLFDLLKAALRQRPNYILVGEIRDKEGNVAFQAMQTGHSVMATFHAANITTLIQRLTGYPIEVPKSYINNLNIALFQTALYDKKGNLIRRVVEVDEIIDIDPVTNDVVYIPAFTYDSVQDKMLFAGKGSSYLIENKIAVKRGIDRRNIGLLYDELQMRSRFLNLLVEKKIFNYYDVWDYILRARQMGLEEAIKYVSNI
B9: TRM10 E111A (Saccharomyces cerevisiae, UniProt Q12400); chain MSNDEINQNEEKVKRTPPLPPVPEGMSKKQWKKMCKRQRWEENKAKYNAERRVKKKRLRHERSAKIQEYIDRGEEVPQELIREPRINVNQTDSGIEIILDCSFDELMNDKAIVSLSNQVTRAYSANRRANHFAEIKVAPFDKRLKQRFETTLKNTNYENWNHFKFLPDDKIMFGDEHISKDKIVYLTADTEEKLEKLEPGMRYIVGGIVDKNRYKELCLKKAQKMGIPTRRLPIDEYINLEGRRVLTTTHVVQLMLKYFDDHNWKNAFESVLPPRKLDAEAKSASSSPAPKDT
B10: Tcur_2987 (Thermomonospora curvata, UniProt D1A807); chain ACSEERAAGARPSATQTTGTATEPFHGPHQAGIATPPQAHAVFLGLDLRKGTGRKELGRLMRLLTDDARRLTQGRPALADPEPDLAPLPSRLTFTFGFGPGLFKAAGLEKQRPEGLRPLPPFKVDRLEDRWSGGDLLVQICCDDPITLAHALRMTVKDARAFTRVRWVQRGFRRSPGVQSSGATQRNLMGQLDGTVNPVPGTADFDQAVWVQDGPEWLRGGTTLVLRRIRMELEKWDEADPAGKEFAVGRRLTSGAPLTGRHEHDEPDFDAVDSAGFPVIAENAHIRLAHVDSPRLRMLRRPYNYDEGLTADGRSDAGLLFAAYQADIDRQFIPVQRRLDEGGDLLNLWTTPIGSAVFAIPPGCDENGWIGQGLLG
Sequence of UniProt P32368 (whole entry, looked up): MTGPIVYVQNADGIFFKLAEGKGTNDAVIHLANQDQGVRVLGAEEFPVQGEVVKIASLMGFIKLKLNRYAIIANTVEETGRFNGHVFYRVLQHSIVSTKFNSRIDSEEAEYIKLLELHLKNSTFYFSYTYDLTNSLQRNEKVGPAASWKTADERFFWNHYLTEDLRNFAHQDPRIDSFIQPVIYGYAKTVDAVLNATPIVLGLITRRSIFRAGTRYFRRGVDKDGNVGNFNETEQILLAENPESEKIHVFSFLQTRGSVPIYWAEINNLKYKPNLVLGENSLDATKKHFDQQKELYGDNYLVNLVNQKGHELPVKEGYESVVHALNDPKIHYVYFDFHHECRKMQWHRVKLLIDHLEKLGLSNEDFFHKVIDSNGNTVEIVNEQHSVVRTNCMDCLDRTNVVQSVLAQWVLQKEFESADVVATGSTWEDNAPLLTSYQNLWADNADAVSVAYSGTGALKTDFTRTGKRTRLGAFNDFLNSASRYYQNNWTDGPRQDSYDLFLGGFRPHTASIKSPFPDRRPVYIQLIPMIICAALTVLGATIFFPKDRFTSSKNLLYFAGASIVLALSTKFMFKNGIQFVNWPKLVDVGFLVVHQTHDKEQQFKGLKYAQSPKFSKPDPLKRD
Sequence of UniProt Q6QT07 (whole entry, looked up): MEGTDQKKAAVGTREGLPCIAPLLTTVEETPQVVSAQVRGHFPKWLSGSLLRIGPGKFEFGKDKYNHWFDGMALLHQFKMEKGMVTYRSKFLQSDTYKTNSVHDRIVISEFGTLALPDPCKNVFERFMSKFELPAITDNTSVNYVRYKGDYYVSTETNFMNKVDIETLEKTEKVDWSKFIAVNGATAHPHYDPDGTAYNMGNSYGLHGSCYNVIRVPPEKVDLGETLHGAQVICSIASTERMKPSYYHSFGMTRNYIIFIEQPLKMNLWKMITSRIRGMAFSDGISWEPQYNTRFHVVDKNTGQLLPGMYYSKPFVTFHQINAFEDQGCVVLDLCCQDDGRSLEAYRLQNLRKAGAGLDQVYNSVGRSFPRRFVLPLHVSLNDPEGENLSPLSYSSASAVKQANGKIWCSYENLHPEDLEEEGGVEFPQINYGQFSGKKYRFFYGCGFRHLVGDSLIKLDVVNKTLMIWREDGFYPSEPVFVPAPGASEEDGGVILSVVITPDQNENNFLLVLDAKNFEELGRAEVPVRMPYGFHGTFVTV
Sequence of UniProt Q18B70 (whole entry, looked up): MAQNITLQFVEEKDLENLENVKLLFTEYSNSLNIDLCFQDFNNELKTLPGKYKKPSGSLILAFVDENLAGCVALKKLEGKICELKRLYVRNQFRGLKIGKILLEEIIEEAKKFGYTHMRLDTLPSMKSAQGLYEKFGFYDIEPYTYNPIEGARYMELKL

Substance = protein (Salmo salar, UniProt A0A1S3PN69); substrate = NCC(=O)N[C@@H](CCC(N)=O)C(=O)O; conditions = pH 7.6, proton-coupled, at -60 mV, not purified; K0.5 = 24.4 µM
Substance = B1 (CYP1A2); substrate = COc1cc2c(cc1CC=C(C)C)C(=O)C[C@@H](c1ccc(O)cc1)O2; conditions = pH 7.4, 37 °C; K0.5 = 3 µM
Substance = protein (Clostridioides difficile, UniProt Q18B70); substrate = C[C@@H](O)[C@H](N)C(=O)O; conditions = pH 8, 37 °C, added: AcCoA 1 mM, L-Thr 0-10 mM; K0.5 = 5960 µM
Substance = B2 (TRM10 D210K); substrate = C[S+](CC[C@H](N)C(=O)O)C[C@H]1O[C@@H](n2cnc3c(N)ncnc32)[C@H](O)[C@@H]1O; conditions = pH 8, 30 °C; K0.5 = 91.8 µM
Substance = SAC1 (Saccharomyces cerevisiae, UniProt P32368); substrate = CCCCCCCC(=O)OC[C@H](COP(=O)(O)O[C@H]1[C@H](O)[C@@H](O)[C@H](OP(=O)(O)O)[C@@H](O)[C@H]1O)OC(=O)CCCCCCC; conditions = pH 6.8; K0.5 = 16 µM
Substance = B3 (enzyme); substrate = NC(=O)C1=CN([C@@H]2O[C@H](COP(=O)(O)OP(=O)(O)OC[C@H]3O[C@@H](n4cnc5c(N)ncnc54)[C@H](OP(=O)(O)O)[C@@H]3O)[C@@H](O)[C@H]2O)C=CC1; conditions = pH 7, not purified, cofactor varied; K0.5 = 10.8 µM
Substance = B4 (Tcur_2987 W263F); substrate = Nc1c(S(=O)(=O)O)cc(Nc2cccc(S(=O)(=O)CCOS(=O)(=O)O)c2)c2c1C(=O)c1ccccc1C2=O; conditions = pH 3, sigmoidal kinetics, added: H2O2 1 mM; K0.5 = 33 µM
Substance = speG (Vibrio cholerae, UniProt Q9KL03); substrate = NCCCNCCCCNCCCN; conditions = pH 9, 37 °C; K0.5 = 579 µM
Substance = protein (Sinorhizobium meliloti, UniProt Q92T34); substrate = NC(=O)C1=CN([C@@H]2O[C@H](COP(=O)(O)OP(=O)(O)OC[C@H]3O[C@@H](n4cnc5c(N)ncnc54)[C@H](OP(=O)(O)O)[C@@H]3O)[C@@H](O)[C@H]2O)C=CC1; conditions = pH 7.5, 25 °C, NaCl 150 mM, cofactor varied, added: hydroxypyruvate 66.7 mM; K0.5 = 10.5 µM
Substance = B5 (TRMT10A D210N); substrate = C[S+](CC[C@H](N)C(=O)O)C[C@H]1O[C@@H](n2cnc3c(N)ncnc32)[C@H](O)[C@@H]1O; conditions = pH 8, 30 °C; K0.5 = 7.84 µM
Substance = B6 (Tcur_2987 W263F/W376F); substrate = Nc1c(S(=O)(=O)O)cc(Nc2cccc(S(=O)(=O)CCOS(=O)(=O)O)c2)c2c1C(=O)c1ccccc1C2=O; conditions = pH 3, sigmoidal kinetics, added: H2O2 1 mM; K0.5 = 26 µM
Substance = pyruvate kinase 1 (Aedes aegypti, UniProt Q16F38); substrate = C=C(OP(=O)(O)O)C(=O)O; conditions = pH 7.5, 25 °C, Hill fit, no effector, added: ADP 2 mM; K0.5 = 246 µM
Substance = B7 (Tcur_2987 W263A); substrate = Nc1c(S(=O)(=O)O)cc(Nc2cccc(S(=O)(=O)CCOS(=O)(=O)O)c2)c2c1C(=O)c1ccccc1C2=O; conditions = pH 3, sigmoidal kinetics, added: H2O2 1 mM; K0.5 = 28 µM
Substance = B8 (flaI); substrate = Nc1ncnc2c1ncn2[C@@H]1O[C@H](COP(=O)(O)OP(=O)(O)OP(=O)(O)O)[C@@H](O)[C@H]1O; conditions = pH 7.5, 70 °C, NaCl 150 mM, Hill coefficient; K0.5 = 10000 µM
Substance = enzyme (Limosilactobacillus reuteri, UniProt Q8GP32); substrate = OC[C@H]1O[C@@](CO)(O[C@H]2O[C@H](CO)[C@@H](O)[C@H](O)[C@H]2O)[C@@H](O)[C@@H]1O; conditions = pH 5.5, 50 °C, apparent; K0.5 = 31000 µM
Substance = B9 (TRM10 E111A); substrate = C[S+](CC[C@H](N)C(=O)O)C[C@H]1O[C@@H](n2cnc3c(N)ncnc32)[C@H](O)[C@@H]1O; conditions = pH 8, 30 °C; K0.5 = 1.4 µM
Substance = B10 (Tcur_2987); substrate = Nc1c(S(=O)(=O)O)cc(Nc2cccc(S(=O)(=O)CCOS(=O)(=O)O)c2)c2c1C(=O)c1ccccc1C2=O; conditions = pH 3, sigmoidal kinetics, added: H2O2 1 mM; K0.5 = 42 µM
Substance = BCO2 (Mustela putorius furo, UniProt Q6QT07); substrate = CC1=C(/C=C/C(C)=C/C=C/C(C)=C/C=C/C=C(C)/C=C/C=C(C)/C=C/C2=C(C)C[C@@H](O)CC2(C)C)C(C)(C)C[C@H](O)C1; test system = crude Sf9 lysate; conditions = pH 8.5, 37 °C, apparent, not purified, added: FeSO4 10 µM, NAD+ 3 mM; K0.5 = 51.5 µM
